Published values collected from several papers.
Parts stem from different laboratories: compare values within a part only. Substitutions count along the parent as printed.

Block 1
Target: CCND2, cyclin fold, Cln2 fusion (human)
Technique: yeast growth competition, sequencing
Matrix: yeast
Notes: weak parent motif
Relative to: not given
Reading: higher = stronger binding
Parent: CDKN1A docking peptide (human); SKACRRLFGPVDS; partner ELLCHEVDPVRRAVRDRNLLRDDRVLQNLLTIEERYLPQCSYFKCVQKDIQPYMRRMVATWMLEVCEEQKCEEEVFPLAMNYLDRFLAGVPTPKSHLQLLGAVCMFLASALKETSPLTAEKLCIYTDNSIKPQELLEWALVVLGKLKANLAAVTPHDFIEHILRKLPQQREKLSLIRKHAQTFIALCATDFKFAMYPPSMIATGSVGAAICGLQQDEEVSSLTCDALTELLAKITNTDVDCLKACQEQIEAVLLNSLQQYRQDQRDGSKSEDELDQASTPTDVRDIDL
Under “normalised enrichment score”, `SKACRALFGPVDS [R6A]` is recorded as 0.0963.
`SKACRRLMGPVDS [F8M]` — result for “normalised enrichment score”: 0.162.
`SKACRRLFYPVDS [G9Y]`: “normalised enrichment score” 0.593.
For `SHACRRLFGPVDS [K2H]`, “normalised enrichment score” read 0.256.
Under “normalised enrichment score”, `SKACRRLFGPIDS [V11I]` is recorded as 0.674.
`SKACRFLFGPVDS [R6F]`: “normalised enrichment score” 0.0868.
`SKACRHLFGPVDS [R6H]` — result for “normalised enrichment score”: 0.325.
Under “normalised enrichment score”, `SKACRRLFGQVDS [P10Q]` is recorded as 0.111.
`SKAMRRLFGPVDS [C4M]`: “normalised enrichment score” 0.0876.
`SKACRRFFGPVDS [L7F]` — result for “normalised enrichment score”: -0.103.
`SKACRRPFGPVDS [L7P]` — result for “normalised enrichment score”: 0.0804.
For `SKACSRLFGPVDS [R5S]`, “normalised enrichment score” read -0.251.
`SKACRRLFGPYDS [V11Y]` — result for “normalised enrichment score”: 0.586.

Block 2
Target: Sal-like protein 4, full length isoform A (SALL4, Homo sapiens, UniProt Q9UJQ4, residues 1-1053)
Sequence of UniProt Q9UJQ4 (whole entry, looked up): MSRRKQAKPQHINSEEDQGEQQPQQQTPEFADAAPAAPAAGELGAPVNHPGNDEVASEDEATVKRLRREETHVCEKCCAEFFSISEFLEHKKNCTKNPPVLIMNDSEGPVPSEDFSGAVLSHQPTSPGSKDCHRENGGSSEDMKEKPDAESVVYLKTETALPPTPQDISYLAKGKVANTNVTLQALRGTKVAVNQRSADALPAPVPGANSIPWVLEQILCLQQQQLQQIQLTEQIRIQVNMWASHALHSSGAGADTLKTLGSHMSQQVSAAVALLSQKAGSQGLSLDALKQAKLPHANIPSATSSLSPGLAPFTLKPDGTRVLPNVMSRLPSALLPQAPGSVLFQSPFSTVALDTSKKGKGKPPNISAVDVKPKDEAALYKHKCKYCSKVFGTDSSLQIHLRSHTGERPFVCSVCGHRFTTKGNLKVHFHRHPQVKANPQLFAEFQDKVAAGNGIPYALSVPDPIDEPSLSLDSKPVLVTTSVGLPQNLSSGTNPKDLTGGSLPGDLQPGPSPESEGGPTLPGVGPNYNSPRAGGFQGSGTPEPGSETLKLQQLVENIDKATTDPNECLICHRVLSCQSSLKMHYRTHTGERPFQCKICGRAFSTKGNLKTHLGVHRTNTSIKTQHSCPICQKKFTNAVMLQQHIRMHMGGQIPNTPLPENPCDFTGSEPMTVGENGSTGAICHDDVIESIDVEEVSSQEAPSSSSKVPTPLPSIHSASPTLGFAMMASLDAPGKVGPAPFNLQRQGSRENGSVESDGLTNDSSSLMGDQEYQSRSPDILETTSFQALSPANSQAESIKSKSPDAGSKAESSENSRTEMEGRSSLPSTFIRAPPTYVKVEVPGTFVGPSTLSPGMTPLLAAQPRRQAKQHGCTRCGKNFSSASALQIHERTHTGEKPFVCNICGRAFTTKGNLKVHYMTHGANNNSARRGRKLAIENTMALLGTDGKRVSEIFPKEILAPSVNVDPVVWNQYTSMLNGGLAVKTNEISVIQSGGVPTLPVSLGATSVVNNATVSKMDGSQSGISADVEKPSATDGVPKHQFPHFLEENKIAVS
Technique: universal PBM
Form: double-stranded DNA, one strand shown
Matrix: in vitro
Tested at: 600 nM
Notes: 8-mer, flanks averaged, mean of replicates
Reading: higher = stronger binding
With `ATAGAAAT` the E-score was 0.355.
`ACTGCGGG` gave an E-score of -0.191.
`GCACTAGA` gave an E-score of -0.0618.
The E-score of `AATGCACA` is reported as 0.176.
The E-score of `GAGGGCAA` is reported as -0.0709.
`CTCTGGGA` gave an E-score of -0.291.
With `AGAGGATG` the E-score was -0.0891.
For `AGTTAGGC`, the E-score was -0.074.
With `CAGGACCA` the E-score was -0.289.
`CCTATAAG` gave an E-score of 0.0206.
`GAAGATCC` gave an E-score of -0.179.
The E-score of `ACACCATG` is reported as -0.19.
`ATGTAGTG` gave an E-score of 0.0907.
`AGAGAACA` gave an E-score of 0.0661.
With `AACAGCGA` the E-score was -0.108.
`CGAGTACG` gave an E-score of -0.132.
`AGCTCCCT` gave an E-score of -0.148.
With `ACTTGACA` the E-score was 0.0665.

Block 3
Molecule: PhoQ, residues 284 288 289 292 302 303 AGHLVA
Technique: Sort-seq
Refers to: YFP reporter
Matrix: E. coli
Notes: PhoQ-PhoP variant library
Together with: 10 µM Mg2+
Relative to: high Mg2+ state
Reading: higher = stronger signaling
For PhoP, residues 12 14 15 18 19 SFCSL (Escherichia coli, UniProt P23836): fold induction read 14.7.
For PhoP, residues 12 14 15 18 19 AYFRS (Escherichia coli, UniProt P23836): fold induction read 6.52.
It gave 1.75 for fold induction (PhoP, residues 12 14 15 18 19 HHYTI (Escherichia coli, UniProt P23836)).

Block 4
Target: Histone acetyltransferase KAT6A, winged helix 1, GST fusion (KAT6A, Homo sapiens, UniProt Q92794, residues 1-85)
Technique: protein binding microarray
Form: double-stranded DNA, one strand shown
Matrix: in vitro
Tested at: not given
Notes: 8-mer, flanks averaged, mean of 2 arrays, mostly near background
Relative to: not given
Reading: higher = stronger binding
Target sequence (chain): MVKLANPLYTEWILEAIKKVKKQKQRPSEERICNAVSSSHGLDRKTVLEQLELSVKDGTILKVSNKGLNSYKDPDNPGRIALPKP
For `GCAGAGTA`, the E-score was -0.054.
`GGTCTGAC` has an E-score of 0.0506.
`ACCCAGCC` gave an E-score of -0.106.
With `CCAAAGCG` the E-score was 0.373.
`GCAGGACC` has an E-score of -0.00248.
The E-score of `GAAGTAGC` is reported as 0.0067.
The E-score of `ACCCACAG` is reported as -0.142.
With `CCTTCGAC` the E-score was -0.104.
`CAACAGCC` has an E-score of 0.214.
For `CTCCCATC`, the E-score was -0.124.
`GGTTAAAC` has an E-score of 0.0279.
The E-score of `ATTGCTGC` is reported as -0.00132.
With `CAGCCATA` the E-score was -0.077.
For `CGCTCCAG`, the E-score was 0.16.
For `CGCGCTTA`, the E-score was 0.356.
The E-score of `ATAATACC` is reported as -0.0382.
With `GCGCAACA` the E-score was 0.256.
For `ACGAGGGA`, the E-score was -0.126.
For `GACATCCA`, the E-score was -0.101.
For `CTAACGAG`, the E-score was -0.125.

A few entries again (block 1):
`SKACRRLMGPVDS [F8M]` — result for “normalised enrichment score”: 0.162.
Under “normalised enrichment score”, `SKACRRLFGPIDS [V11I]` is recorded as 0.674.
`SKACRRFFGPVDS [L7F]` — result for “normalised enrichment score”: -0.103.
Under “normalised enrichment score”, `SKACRALFGPVDS [R6A]` is recorded as 0.0963.
